Published values collected from several papers.
Numbered parts are unrelated; each lists some results of a single study. Substitutions count along the parent as printed.

Block 1
Target: CCNE1, cyclin fold, Cln2 fusion (human)
Method: yeast growth competition, sequencing
Sample: yeast
Setting: strong parent motif
Baseline: not given
Reading: higher = stronger binding
Starting sequence: BRCA2 docking peptide (human); PSIKRNLLNEFDR; partner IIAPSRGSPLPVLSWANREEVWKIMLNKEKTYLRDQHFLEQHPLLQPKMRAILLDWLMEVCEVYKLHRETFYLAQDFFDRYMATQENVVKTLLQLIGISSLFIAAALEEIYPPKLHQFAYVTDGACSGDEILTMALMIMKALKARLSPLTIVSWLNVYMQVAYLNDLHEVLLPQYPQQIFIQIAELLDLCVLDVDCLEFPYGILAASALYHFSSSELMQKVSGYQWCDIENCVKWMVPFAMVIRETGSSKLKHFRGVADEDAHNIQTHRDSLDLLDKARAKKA
Under “normalised enrichment score”, `PSIKRNLLNESDR [F11S]` is recorded as -0.858.
`PSKKRNLLNEFDR [I3K]`: “normalised enrichment score” 1.12.
Under “normalised enrichment score”, `PSIKRNQLNEFDR [L7Q]` is recorded as 0.238.
`PSIKRRLLNEFDR [N6R]`: “normalised enrichment score” 0.437.
`PSIKRNLLPEFDR [N9P]`: “normalised enrichment score” 1.9.
`PSIKRNLTNEFDR [L8T]`: “normalised enrichment score” 0.604.
Under “normalised enrichment score”, `PSIKRNLLNEFLR [D12L]` is recorded as 0.541.
For `PIIKRNLLNEFDR [S2I]`, “normalised enrichment score” read 1.51.
`PSIKRNKLNEFDR [L7K]`: “normalised enrichment score” 0.311.
For `WSIKRNLLNEFDR [P1W]`, “normalised enrichment score” read 2.44.
Under “normalised enrichment score”, `PSIKRNLLNEFDY [R13Y]` is recorded as 2.35.
For `GSIKRNLLNEFDR [P1G]`, “normalised enrichment score” read 1.31.
`PSIKRNLFNEFDR [L8F]`: “normalised enrichment score” 1.24.
For `PSIKRNLLNEWDR [F11W]`, “normalised enrichment score” read -0.0197.
`PSIKRNLLNEFPR [D12P]`: “normalised enrichment score” 0.582.
Under “normalised enrichment score”, `PSIKRNLENEFDR [L8E]` is recorded as 0.164.
For `PSIKRNLLNKFDR [E10K]`, “normalised enrichment score” read 0.101.
`PSIKRNLLNEFTR [D12T]` — result for “normalised enrichment score”: 0.783.
For `PSIKRNLLVEFDR [N9V]`, “normalised enrichment score” read 2.06.
`YSIKRNLLNEFDR [P1Y]` — result for “normalised enrichment score”: 1.64.
For `PSIKRNLLMEFDR [N9M]`, “normalised enrichment score” read 1.17.

Block 2
Target: RNA binding protein fox-1 homolog 2, RRM domain, GST-SBP tag (RBFOX2, Homo sapiens, UniProt O43251-10, residues 100-194)
Method: RNA Bind-n-Seq
Form: RNA
Sample: in vitro
Concentration: 365 nM
Setting: natural RNA segment, single round, ends assumed
Baseline: no-protein control
Reading: higher = stronger binding
Construct (chain): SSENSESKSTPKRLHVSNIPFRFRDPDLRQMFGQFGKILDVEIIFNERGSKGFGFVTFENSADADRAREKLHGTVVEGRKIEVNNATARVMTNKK
`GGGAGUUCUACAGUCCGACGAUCUUUAAAGAUGAACUGAAAUGCACAUAGCCAAGUCUUGAGAUACAAGAUUGAAUGUGUAUUUCUUAAAAAUACAACUUUGUGUUGUACUUUGAAAUAAAUGAUGCUUUUUUUGGAAUUCUCGGGUGCCAA`: “RBNS enrichment (R)” 0.423.
`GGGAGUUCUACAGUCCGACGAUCUCAUUUGGCUCCACCUUCAUCUUGCAGAGCCAGCUGAUCUCAGAUUGCCAAGAAACUAGAAGCCACUUGCACGGUGUGGCCAGAGCCUCAGCUGGAUGAGAGGCUGAGAUUGGAAUUCUCGGGUGCCAA` — result for “RBNS enrichment (R)”: 11.9.
For `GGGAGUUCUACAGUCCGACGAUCGAGACAGUGUAGACAGCAGCUCUGCUCUGUAUUCUUUUUGACAAAACCAGAACAGUAGAAGUAGCCAAUCGUAAGACCUGAAGACAUUUUGAAUGUCCCACUGGACUAACUGGAAUUCUCGGGUGCCAA`, “RBNS enrichment (R)” read 0.271.
`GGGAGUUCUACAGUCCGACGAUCAACCAAUUCCUCAUCCUCAGAUGCUCAAAGUUGUUUUUUUUGUUUGUUUGUUUAUUAGAUGAAUUAUCCUAUUUCAGUACUUCAGCAAGAGAGAACCUAACUGUAUCUUGUGGAAUUCUCGGGUGCCAA`: “RBNS enrichment (R)” 0.427.
`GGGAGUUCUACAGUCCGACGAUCUUAUCAAAGUUAAAGCGCCUCUUCACUCAAAAGGGCUUCAAAAUGUAAAUGGCUCUAGAGUUAGAGUGACUGUUUGCUCUUCUGCUUUCUGGAAUGCAGAUGACAGUAUGUGGAAUUCUCGGGUGCCAA`: “RBNS enrichment (R)” 0.486.
`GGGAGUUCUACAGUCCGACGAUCAGCAGAAACGGAAAUUGACCUCCCCGCCAUGUGUUUAAUAUUCCUCCUGCUUUUACUUUUGUCAUUUUCUUGAUAAUCGUAAGCCUUGAGAGUGUUUGUGAAAAAGUUUUUGGAAUUCUCGGGUGCCAA`: “RBNS enrichment (R)” 1.27.
`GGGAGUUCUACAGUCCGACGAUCGCCGCCAACGUCAUUGGGCCCAAGAUCUGCCUCGAGGACAAGAGGCUGAUGAGCAGCGUCAAGGACAACGUGGGCCGCGGGCUGAACAUCGCCCUGGUGAACGGGGUCAGUGGAAUUCUCGGGUGCCAA` — result for “RBNS enrichment (R)”: 0.357.
`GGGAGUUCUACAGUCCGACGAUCGUGCCUUGGGCCCUGAAGCCCCAUAUGUAGUAUAGAGCAAAGGUGGCUCCUGGUGAAGAGAGGGUGGAAAGGCCCUUCAGCCCCAGGGCCAUGUCUGGGUUCUCCAUGCCUGGAAUUCUCGGGUGCCAA` — result for “RBNS enrichment (R)”: 0.408.

Block 3
Target: Ras GTPase-activating protein-binding protein 1, full length (G3BP1, Homo sapiens, UniProt Q13283)
Sequence of UniProt Q13283 (whole entry, looked up): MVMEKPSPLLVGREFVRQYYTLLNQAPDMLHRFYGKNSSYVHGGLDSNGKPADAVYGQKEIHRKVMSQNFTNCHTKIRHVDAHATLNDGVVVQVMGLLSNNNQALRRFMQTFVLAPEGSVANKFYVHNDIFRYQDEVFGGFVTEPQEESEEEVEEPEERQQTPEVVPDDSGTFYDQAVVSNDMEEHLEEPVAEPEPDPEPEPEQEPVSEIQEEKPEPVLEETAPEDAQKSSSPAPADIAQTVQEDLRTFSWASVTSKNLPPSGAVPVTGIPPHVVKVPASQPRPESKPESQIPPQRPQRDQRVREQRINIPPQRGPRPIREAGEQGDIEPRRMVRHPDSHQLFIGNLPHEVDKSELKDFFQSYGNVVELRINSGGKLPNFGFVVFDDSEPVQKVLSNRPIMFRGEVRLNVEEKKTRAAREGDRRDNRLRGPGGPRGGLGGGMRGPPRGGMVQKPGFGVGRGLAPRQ
Method: RNA Bind-n-Seq
Form: RNA
Sample: in vitro
Concentration: 200 nM
Setting: whole 134-nt RNA, ends assumed
Together with: 150 mM LiCl
Baseline: input library
Reading: higher = stronger binding
All molecules: 7-deaza-guanosine replaces G
`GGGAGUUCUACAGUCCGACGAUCCACAGACAACACGCACCCACACAGACACAGAGCGAAGGGGUUGGGAUGGGGACAGGGUGCACAGCAGGGCGGGGUAGGACCCCAGCCCCUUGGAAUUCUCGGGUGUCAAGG` has a log2 enrichment of 0.243.
The log2 enrichment of `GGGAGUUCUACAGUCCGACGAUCCCUCAAGUCCUGUGCUACACAUCGUAUGUACCGAAUCGGCGGGGCGGGCGGGGAAAGUAUUAUGUUACGCCGUUCGGAUCUGCACUUCCAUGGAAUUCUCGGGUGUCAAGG` is reported as -0.135.
`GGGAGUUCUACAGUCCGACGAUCUCCUCAAGUCCUGUGCUACACAUCGUAUGUACCGAAUCGGUGGAAAGGUGGAAAGUAUUAUGUUACGCCGUUCGGAUCUGCACUUCCAGCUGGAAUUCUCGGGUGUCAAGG` gave a log2 enrichment of 0.272.
The log2 enrichment of `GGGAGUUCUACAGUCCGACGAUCUUUUCAUACCGAUCUAGAGUUCGUCCUUGCGUGGUUUAUGGUGGUGCCGAUAUUGGUCAGCAGAUUCGAGACUUGGAACGUGGAUGCCAUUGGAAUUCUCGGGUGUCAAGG` is reported as -0.316.
The log2 enrichment of `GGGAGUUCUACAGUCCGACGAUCUGGGCAAUGUGUCGGCUGCAUGCACGAGCCAGGAACUGCGCAGCCUCUUCGAGCGCCGCGGACGCGUCAUCGAGUGUGACGUGGUGAAAGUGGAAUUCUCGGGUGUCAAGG` is reported as -0.179.
With `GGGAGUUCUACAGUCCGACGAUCUCCUGUGCUACACAUCGUAUGUACCGAAUCGGGUUUUUUUGGUUUUUUUGGUUUUUUUGGAAAGUAUUAUGUUACGCCGUUCGGAUCUGCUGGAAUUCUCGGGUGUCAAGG` the log2 enrichment was 0.425.
`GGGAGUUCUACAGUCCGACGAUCUCCUGUGCUACACAUCGUAUGUACCGAAUCGGGGUGGGGAAAAAAAGGGGUUUUUGGGGAAAGUAUUAUGUUACGCCGUUCGGAUCUGCAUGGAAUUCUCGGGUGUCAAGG` gave a log2 enrichment of 0.304.
For `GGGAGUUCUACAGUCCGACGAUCCAAGUCCUGUGCUACACAUCGUAUGUACCGAAUCGGCCCCGGCCCCGGGGCCCCGGAAAGUAUUAUGUUACGCCGUUCGGAUCUGCACUUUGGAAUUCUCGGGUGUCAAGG`, the log2 enrichment was -2.22.

Block 4
Target: Interferon regulatory factor 5, full length, phosphomimetic (IRF5, Homo sapiens, UniProt Q13568-2, residues 1-514, S451D/S453D/S456D/S462D)
Method: protein-binding microarray
Form: double-stranded DNA, one strand shown
Sample: in vitro
Concentration: 940 nM top
Setting: 60-bp whole probe
Together with: salmon DNA 0.4 mg/ml
Baseline: random background probes
Reading: higher = stronger binding
Constant ends, left off below: GCCTAGCAC … GTCTTGATTCGCTTGACGCTGCTG
Under “fitted relative affinity”, `TCAAAAATGAATATTAGACTGTGCTAG` is recorded as -0.471 z-score.
Under “fitted relative affinity”, `GAAGGTTCCCTTTTCCTGACGTGCTAG` is recorded as 0.824 z-score.
For `TTAGCTTTCCTTTTCCTTTAGTGCTAG`, “fitted relative affinity” read 1.19 z-score.
Under “fitted relative affinity”, `GCCGAACTGAGTCTCGAGACGTGCTAG` is recorded as 1.1 z-score.
`CACGAACTGAGTATCGAGACGTGCTAG` — result for “fitted relative affinity”: 1.24 z-score.
For `TTGGGTTTCGACTTTCGGTTAGTGCTA`, “fitted relative affinity” read 8.27 z-score.
Under “fitted relative affinity”, `TCAGATCTCAGTATCGATTAGTGCTAG` is recorded as 4.6 z-score.
Under “fitted relative affinity”, `TTAGCACTGGGTATCGGTTAGTGCTAG` is recorded as 3.39 z-score.
For `GACGGTATCCCTTTCCTGACGTGCTAG`, “fitted relative affinity” read 0.921 z-score.
Under “fitted relative affinity”, `TTAGGACTGGACTATCGGTGAGTGCTA` is recorded as -0.311 z-score.
`GACGAACTGGGGCTTCGAGACGTGCTA`: “fitted relative affinity” -0.0116 z-score.
For `GTTTTTCTCCTATTTAAGACGTGCTAG`, “fitted relative affinity” read 2.02 z-score.
For `GACGGTTTTGGTCTCGGGACGTGCTAG`, “fitted relative affinity” read 3.81 z-score.
`TTAGATTCCAGTTCCGATTAGTGCTAG` — result for “fitted relative affinity”: 1.54 z-score.
For `GACGGTTTCGGTTCCGGGTCGTGCTAG`, “fitted relative affinity” read 15.8 z-score.
For `TGAGATCTCAGTTTCGATTAGTGCTAG`, “fitted relative affinity” read 8.87 z-score.
`GACGGGCTCCTTATCCTGACGTGCTAG` — result for “fitted relative affinity”: 0.0353 z-score.
Under “fitted relative affinity”, `GACGGTTTCGGACTGGGGGCGTGCTAG` is recorded as 8.16 z-score.
`TTAAATATCAGTTTCGATTAGTGCTAG`: “fitted relative affinity” 8.73 z-score.

Excerpt of the above (block 2):
`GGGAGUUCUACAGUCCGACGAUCUUUAAAGAUGAACUGAAAUGCACAUAGCCAAGUCUUGAGAUACAAGAUUGAAUGUGUAUUUCUUAAAAAUACAACUUUGUGUUGUACUUUGAAAUAAAUGAUGCUUUUUUUGGAAUUCUCGGGUGCCAA`: “RBNS enrichment (R)” 0.423.
`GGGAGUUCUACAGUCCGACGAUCUCAUUUGGCUCCACCUUCAUCUUGCAGAGCCAGCUGAUCUCAGAUUGCCAAGAAACUAGAAGCCACUUGCACGGUGUGGCCAGAGCCUCAGCUGGAUGAGAGGCUGAGAUUGGAAUUCUCGGGUGCCAA` — result for “RBNS enrichment (R)”: 11.9.
For `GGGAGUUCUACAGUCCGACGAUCGAGACAGUGUAGACAGCAGCUCUGCUCUGUAUUCUUUUUGACAAAACCAGAACAGUAGAAGUAGCCAAUCGUAAGACCUGAAGACAUUUUGAAUGUCCCACUGGACUAACUGGAAUUCUCGGGUGCCAA`, “RBNS enrichment (R)” read 0.271.
`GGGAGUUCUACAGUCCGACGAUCAACCAAUUCCUCAUCCUCAGAUGCUCAAAGUUGUUUUUUUUGUUUGUUUGUUUAUUAGAUGAAUUAUCCUAUUUCAGUACUUCAGCAAGAGAGAACCUAACUGUAUCUUGUGGAAUUCUCGGGUGCCAA`: “RBNS enrichment (R)” 0.427.
`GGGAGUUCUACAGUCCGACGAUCUUAUCAAAGUUAAAGCGCCUCUUCACUCAAAAGGGCUUCAAAAUGUAAAUGGCUCUAGAGUUAGAGUGACUGUUUGCUCUUCUGCUUUCUGGAAUGCAGAUGACAGUAUGUGGAAUUCUCGGGUGCCAA`: “RBNS enrichment (R)” 0.486.
`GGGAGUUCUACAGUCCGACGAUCAGCAGAAACGGAAAUUGACCUCCCCGCCAUGUGUUUAAUAUUCCUCCUGCUUUUACUUUUGUCAUUUUCUUGAUAAUCGUAAGCCUUGAGAGUGUUUGUGAAAAAGUUUUUGGAAUUCUCGGGUGCCAA`: “RBNS enrichment (R)” 1.27.
`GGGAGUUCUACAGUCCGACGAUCGCCGCCAACGUCAUUGGGCCCAAGAUCUGCCUCGAGGACAAGAGGCUGAUGAGCAGCGUCAAGGACAACGUGGGCCGCGGGCUGAACAUCGCCCUGGUGAACGGGGUCAGUGGAAUUCUCGGGUGCCAA` — result for “RBNS enrichment (R)”: 0.357.
